Results of several laboratories.
Lines come from different studies, so protocols differ. Numbers after ± are the reported error.
PPARA ligand-binding domain: Peroxisome proliferator-activated receptor alpha, ligand-binding domain (PPARA, Homo sapiens, UniProt Q07869)
Sequence of UniProt Q07869 (whole entry, looked up): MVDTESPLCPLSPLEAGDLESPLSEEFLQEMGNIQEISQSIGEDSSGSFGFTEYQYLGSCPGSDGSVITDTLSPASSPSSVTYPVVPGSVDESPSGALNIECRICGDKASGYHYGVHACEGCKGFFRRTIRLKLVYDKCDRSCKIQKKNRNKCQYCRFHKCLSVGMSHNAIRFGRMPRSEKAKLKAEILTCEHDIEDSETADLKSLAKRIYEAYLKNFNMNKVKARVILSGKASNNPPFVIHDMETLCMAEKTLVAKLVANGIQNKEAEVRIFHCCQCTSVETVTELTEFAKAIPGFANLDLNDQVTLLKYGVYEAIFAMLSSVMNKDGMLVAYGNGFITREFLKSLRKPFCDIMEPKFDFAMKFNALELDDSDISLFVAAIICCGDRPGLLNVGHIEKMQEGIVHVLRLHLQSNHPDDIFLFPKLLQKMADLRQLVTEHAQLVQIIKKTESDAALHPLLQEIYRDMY
PIK3CG: Phosphatidylinositol 4,5-bisphosphate 3-kinase catalytic subunit gamma isoform (PIK3CG, Homo sapiens, UniProt P48736)
Sequence of UniProt P48736 (whole entry, looked up): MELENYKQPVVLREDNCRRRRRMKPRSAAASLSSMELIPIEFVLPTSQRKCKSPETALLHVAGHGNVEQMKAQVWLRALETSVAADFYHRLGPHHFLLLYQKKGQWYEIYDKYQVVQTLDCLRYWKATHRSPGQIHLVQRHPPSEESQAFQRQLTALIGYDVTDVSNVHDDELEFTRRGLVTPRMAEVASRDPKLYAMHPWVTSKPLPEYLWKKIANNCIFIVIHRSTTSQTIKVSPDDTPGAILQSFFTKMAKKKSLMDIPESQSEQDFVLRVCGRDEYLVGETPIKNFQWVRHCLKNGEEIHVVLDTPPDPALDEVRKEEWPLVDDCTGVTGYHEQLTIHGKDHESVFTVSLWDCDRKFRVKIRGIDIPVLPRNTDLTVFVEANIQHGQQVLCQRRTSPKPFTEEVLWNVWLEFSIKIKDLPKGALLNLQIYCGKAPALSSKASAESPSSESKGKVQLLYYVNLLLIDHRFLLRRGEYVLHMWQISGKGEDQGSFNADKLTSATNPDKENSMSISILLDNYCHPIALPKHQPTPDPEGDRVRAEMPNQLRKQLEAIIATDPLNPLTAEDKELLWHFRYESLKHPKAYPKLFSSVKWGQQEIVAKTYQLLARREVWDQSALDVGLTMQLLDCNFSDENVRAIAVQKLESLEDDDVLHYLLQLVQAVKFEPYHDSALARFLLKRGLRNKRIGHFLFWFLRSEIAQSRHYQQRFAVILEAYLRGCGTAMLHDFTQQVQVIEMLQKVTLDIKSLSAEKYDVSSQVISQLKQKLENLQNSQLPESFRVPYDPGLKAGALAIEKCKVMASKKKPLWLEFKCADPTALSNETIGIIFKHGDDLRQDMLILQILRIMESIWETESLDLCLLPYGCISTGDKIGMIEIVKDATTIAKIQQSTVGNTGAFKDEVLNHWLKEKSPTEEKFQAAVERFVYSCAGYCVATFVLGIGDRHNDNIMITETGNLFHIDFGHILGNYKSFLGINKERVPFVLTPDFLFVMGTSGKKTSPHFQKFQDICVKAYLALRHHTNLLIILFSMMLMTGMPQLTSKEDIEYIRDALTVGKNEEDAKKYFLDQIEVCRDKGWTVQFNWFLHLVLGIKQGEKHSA
SIRT2: NAD-dependent protein deacetylase sirtuin-2 (SIRT2, Homo sapiens, UniProt Q8IXJ6)
Sequence of UniProt Q8IXJ6 (whole entry, looked up): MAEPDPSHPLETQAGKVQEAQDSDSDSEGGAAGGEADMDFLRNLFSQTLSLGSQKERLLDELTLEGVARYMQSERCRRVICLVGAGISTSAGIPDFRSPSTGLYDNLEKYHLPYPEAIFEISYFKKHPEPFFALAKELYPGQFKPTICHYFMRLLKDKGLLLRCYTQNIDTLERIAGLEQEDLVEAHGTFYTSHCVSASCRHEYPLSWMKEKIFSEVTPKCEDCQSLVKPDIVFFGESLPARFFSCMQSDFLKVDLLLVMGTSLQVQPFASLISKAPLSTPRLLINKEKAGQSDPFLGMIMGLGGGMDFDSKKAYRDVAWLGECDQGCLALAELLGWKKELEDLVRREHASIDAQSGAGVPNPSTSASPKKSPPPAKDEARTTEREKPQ
GBA2: Beta-glucosidase (GBA2, Homo sapiens, UniProt Q9HCG7)
Sequence of UniProt Q9HCG7 (whole entry, looked up): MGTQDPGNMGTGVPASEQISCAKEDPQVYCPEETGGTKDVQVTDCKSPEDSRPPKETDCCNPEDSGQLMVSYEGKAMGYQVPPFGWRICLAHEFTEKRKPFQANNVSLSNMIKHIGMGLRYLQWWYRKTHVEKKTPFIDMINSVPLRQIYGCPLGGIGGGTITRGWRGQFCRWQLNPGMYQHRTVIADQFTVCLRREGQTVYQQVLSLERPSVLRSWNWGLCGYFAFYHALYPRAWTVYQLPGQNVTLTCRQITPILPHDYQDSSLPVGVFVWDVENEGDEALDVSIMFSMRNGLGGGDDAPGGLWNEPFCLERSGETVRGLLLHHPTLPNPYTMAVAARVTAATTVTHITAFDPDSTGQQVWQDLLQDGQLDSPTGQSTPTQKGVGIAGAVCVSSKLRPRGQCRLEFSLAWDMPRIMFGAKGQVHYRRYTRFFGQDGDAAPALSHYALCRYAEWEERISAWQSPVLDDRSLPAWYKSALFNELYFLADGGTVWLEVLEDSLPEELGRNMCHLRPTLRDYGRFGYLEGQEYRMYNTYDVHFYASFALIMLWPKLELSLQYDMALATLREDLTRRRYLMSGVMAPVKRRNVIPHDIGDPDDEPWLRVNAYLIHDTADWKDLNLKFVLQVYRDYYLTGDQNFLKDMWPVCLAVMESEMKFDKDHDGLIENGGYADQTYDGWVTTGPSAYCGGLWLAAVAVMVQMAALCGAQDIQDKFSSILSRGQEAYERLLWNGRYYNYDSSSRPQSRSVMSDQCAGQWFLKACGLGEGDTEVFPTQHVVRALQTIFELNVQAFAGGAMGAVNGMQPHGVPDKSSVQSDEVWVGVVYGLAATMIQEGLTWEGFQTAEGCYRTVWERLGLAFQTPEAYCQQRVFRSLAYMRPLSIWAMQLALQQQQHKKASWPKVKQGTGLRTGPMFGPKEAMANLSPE
Chymotrypsinogen A: Chymotrypsinogen A (Bos taurus, UniProt P00766)
CTSB: Cathepsin B (CTSB, Homo sapiens, UniProt P07858)
JAK2: Tyrosine-protein kinase JAK2 (JAK2, Homo sapiens, UniProt O60674)
Sequence of UniProt O60674 (whole entry, looked up): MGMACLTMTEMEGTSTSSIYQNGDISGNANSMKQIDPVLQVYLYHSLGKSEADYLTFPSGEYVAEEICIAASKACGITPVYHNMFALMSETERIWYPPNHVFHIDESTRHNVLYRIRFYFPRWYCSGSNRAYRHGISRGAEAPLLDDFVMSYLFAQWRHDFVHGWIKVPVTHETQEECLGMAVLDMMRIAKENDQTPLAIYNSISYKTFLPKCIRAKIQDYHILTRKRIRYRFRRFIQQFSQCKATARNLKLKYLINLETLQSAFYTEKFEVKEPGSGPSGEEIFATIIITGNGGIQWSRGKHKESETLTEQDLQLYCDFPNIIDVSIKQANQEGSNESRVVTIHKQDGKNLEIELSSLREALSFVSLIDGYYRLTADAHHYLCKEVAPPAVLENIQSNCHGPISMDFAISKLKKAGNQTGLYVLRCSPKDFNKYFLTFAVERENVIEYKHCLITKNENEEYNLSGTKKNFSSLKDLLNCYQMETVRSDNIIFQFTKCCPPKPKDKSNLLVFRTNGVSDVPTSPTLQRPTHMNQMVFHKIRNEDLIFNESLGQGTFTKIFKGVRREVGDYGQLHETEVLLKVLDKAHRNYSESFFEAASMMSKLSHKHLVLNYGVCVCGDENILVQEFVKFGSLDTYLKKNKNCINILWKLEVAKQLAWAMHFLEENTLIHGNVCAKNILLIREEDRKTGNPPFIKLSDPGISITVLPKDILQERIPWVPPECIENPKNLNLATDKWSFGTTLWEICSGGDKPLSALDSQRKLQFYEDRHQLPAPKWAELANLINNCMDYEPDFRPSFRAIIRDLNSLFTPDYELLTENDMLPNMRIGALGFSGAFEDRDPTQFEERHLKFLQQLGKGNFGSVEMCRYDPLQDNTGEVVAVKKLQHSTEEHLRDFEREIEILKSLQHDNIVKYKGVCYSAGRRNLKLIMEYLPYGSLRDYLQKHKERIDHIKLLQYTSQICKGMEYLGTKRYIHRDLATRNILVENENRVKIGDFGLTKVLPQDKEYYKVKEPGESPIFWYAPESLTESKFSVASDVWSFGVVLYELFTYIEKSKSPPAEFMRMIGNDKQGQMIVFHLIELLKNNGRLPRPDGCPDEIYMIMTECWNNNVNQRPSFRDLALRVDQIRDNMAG
Sensor histidine kinase AirS: Sensor histidine kinase AirS (Staphylococcus aureus, UniProt Q2FX96)
Sequence of UniProt Q8TBX8 (whole entry, looked up): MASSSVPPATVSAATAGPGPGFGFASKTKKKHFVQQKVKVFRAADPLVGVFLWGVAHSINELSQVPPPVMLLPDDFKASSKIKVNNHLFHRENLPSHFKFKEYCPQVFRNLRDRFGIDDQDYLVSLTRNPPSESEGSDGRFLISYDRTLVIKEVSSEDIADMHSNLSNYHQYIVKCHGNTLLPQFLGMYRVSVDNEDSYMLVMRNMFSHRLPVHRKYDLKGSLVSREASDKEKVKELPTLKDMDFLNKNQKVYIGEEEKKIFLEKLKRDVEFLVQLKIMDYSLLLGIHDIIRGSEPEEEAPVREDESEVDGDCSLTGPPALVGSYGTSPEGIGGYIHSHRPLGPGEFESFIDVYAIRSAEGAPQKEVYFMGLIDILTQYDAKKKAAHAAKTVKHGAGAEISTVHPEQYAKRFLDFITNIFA
Sequence of UniProt P41240 (whole entry, looked up): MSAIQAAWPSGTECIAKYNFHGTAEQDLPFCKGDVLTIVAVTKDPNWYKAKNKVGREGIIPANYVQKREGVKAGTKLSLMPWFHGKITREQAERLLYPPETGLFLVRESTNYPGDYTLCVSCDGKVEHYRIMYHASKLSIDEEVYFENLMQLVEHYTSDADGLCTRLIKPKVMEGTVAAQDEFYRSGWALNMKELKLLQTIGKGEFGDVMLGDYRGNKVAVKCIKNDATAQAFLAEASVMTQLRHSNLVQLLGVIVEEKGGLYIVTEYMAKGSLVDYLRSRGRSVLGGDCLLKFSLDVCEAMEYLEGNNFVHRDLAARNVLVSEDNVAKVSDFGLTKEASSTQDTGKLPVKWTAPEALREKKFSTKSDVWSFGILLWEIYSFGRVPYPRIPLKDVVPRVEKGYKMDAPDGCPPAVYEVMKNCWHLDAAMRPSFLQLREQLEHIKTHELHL
Sequence of UniProt P10997 (whole entry, looked up): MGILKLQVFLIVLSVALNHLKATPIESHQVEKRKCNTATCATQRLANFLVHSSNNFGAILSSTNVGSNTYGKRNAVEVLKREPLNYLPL

Compound	target or system	test	system	conditions	how to read	quantity	result
Cc1c(Cc2cccc(OC(C)C(=O)O)c2)c2ccc(C(=O)N[C@@H](C)c3ccc(C(F)(F)F)cc3)cc2n1C (stereo partly shown)	PPARA ligand-binding domain	reporter gene, luciferase reporter	HEK293T, Gal4-PPARα LBD	–	–	IC50	5.16 µM
O=C(c1ccc(Br)c([N+](=O)[O-])c1)N1CCN(c2ccccc2F)CC1	SEC14 (Saccharomyces cerevisiae, UniProt P24280)	enzyme activity, inhibitor, radiometric	–	–	–	IC50	0.0997 µM
Cc1c(Cc2ccc(OC(C)(C)C(=O)O)cc2)c2ccc(C(=O)N[C@@H](C)c3cccc(C4CC4)c3)cc2n1C	PPARA ligand-binding domain	reporter gene, luciferase reporter	HEK293T, Gal4-PPARα LBD	–	–	IC50	2.19 µM
O=C1Nc2ccccc2/C1=N/c1ccc(Cl)cc1Br	PIK3CG	enzyme activity, inhibitor, ADP detection	–	–	–	IC50	0.0187 µM
C[C@](C(=O)NC1CCOCC1)(c1cncnc1)N(C(=O)[C@H](F)Cl)c1ccc(OC(F)(F)Cl)cc1	Replicase polyprotein 1ab, main protease (Human coronavirus OC43, UniProt P0C6X6)	inhibitor	–	–	–	IC50	0.01 µM
Cc1cc(C)nc(SCC(=O)Nc2ncc(Cc3cccc(OCc4cn(Cc5ccc(C#N)cc5)nn4)c3)s2)n1	SIRT2	inhibitor	–	–	–	IC50	0.15 ± 0.03 µM
C[C@@H]1Cc2c([nH]c3ccccc23)[C@@H](c2c(F)cc(/C=C/C(=O)O)cc2F)N1C12CC(C1)C2	Estrogen receptor (ESR1, Homo sapiens, UniProt P03372)	cell-free assay	–	–	–	IC50	0.000404 µM
CCN1/C(=C/C(C)=O)Sc2ccc(F)cc21	ADRA2A (Homo sapiens, UniProt P08913)	ligand displacement, radioligand	–	–	–	IC50	27 µM
OC[C@@H]1[C@@H](O)[C@H](O)[C@@H](O)CN1CCCCCOCc1ccc(-c2ccccc2F)cc1	GBA2	inhibitor, 4MU-β-D-glucopyranoside	HEK293T homogenates overexpressing GBA2	–	–	IC50	0.002 µM
CC(C)Cn1cc(Cc2cccc(OC(C)(C)C(=O)O)c2)c2ccc(C(=O)N[C@@H](C)c3cccc(C(C)(C)C)c3)c(F)c21	PPARA ligand-binding domain	reporter gene, luciferase reporter	HEK293T, Gal4-PPARα LBD	–	–	IC50	> 100 µM
OC[C@@H]1[C@@H](O)[C@H](O)[C@@H](O)CN1CCCCCOCc1ccc(-c2ccccc2)c(F)c1	GBA2	inhibitor, 4MU-β-D-glucopyranoside	HEK293T homogenates overexpressing GBA2	–	–	IC50	8e-05 µM
Nc1ncc2c(n1)-c1c([nH]c3ccc(C4=CCOCC4)cc13)CCC2	MAP3K19 (Homo sapiens, UniProt Q56UN5)	enzyme activity, inhibitor, radiometric	–	–	–	IC50	0.6 µM
Cc1ncsc1-c1ccc(C(C)NC(=O)C2CC(O)CN2C(=O)C(NC(=O)CCCCCCCCCCN2CCCC(Nc3ncc(Cl)c(Nc4ccccc4S(=O)(=O)C(C)C)n3)C2)C(C)(C)C)cc1 (stereo not shown)	22Rv1	RNA-seq, item: ZBED8 mRNA	–	concentration not given	baseline: DMSO	log2 fold change	-2.46
O=C(C(C(F)(F)F)C(F)(F)F)N1CCc2ccccc21	Chymotrypsinogen A	enzyme activity, inhibitor, fluorescence	–	–	–	IC50	15 µM
Cc1cc(-c2ccc(S(=O)(=O)C3CC(C(=O)NC4(C#N)CC4)N(C(=O)C4(C(F)(F)F)CC4)C3)c(C(F)(F)F)c2)ccn1 (stereo not shown)	CTSB	enzyme activity, inhibitor	–	–	–	IC50	> 10 µM
O=C(Nc1ccc(C(=O)Nc2ccc3c(O)cc(S(=O)(=O)O)cc3c2)cc1)c1ccccc1	TREX1 (Homo sapiens, UniProt Q9NSU2)	enzyme activity, inhibitor	–	–	–	IC50	4.72 µM
Cc1nn(-c2ccccc2)nc1CNC(=O)C(C(F)(F)F)C(F)(F)F	Chymotrypsinogen A	enzyme activity, inhibitor, fluorescence	–	–	–	IC50	> 100 µM
CC(=O)N[C@@H](CCCCN)C(=O)Nc1ccc(/N=N/c2ccc(N(C)C)cc2)cc1	IAPP (Homo sapiens, UniProt P10997)	ThT displacement, ThT fluorescence	–	pH 7.4, preformed target-ThT complex, added: 5 µM ThT	–	IC50	2.5 µM
Cc1ccc(S(=O)(=O)N2N=Cc3ccsc3B2O)cc1	PLAU (Homo sapiens, UniProt P00749)	enzyme activity, inhibitor	–	–	–	IC50	> 100 µM
Cc1cccc(C)c1NC(=O)C(C(F)(F)F)C(F)(F)F	Chymotrypsinogen A	enzyme activity, inhibitor, fluorescence	–	–	–	IC50	9 µM
COc1cc2c(cc1OC)-c1n[nH]c(-c3ccc(OCc4ccccc4)cc3)c1C2	CHEK1 (Homo sapiens, UniProt O14757)	enzyme activity, inhibitor	–	–	–	IC50	> 10 µM
C=CC(=O)Nc1cccc(Cn2ncc3cnc(Nc4cnn(CCOC)c4)nc32)c1	TSSK1B human	binding, KINOMEscan	–	100 nM	lower = stronger binding	percent of control	100%
Cc1c(Cc2cccc(OC(C)C(=O)O)c2)c2ccc(C(=O)NC(C)c3cccc(C4CC4)c3)cc2n1C (mixture of isomers)	PPARA ligand-binding domain	reporter gene, luciferase reporter	HEK293T, Gal4-PPARα LBD	–	–	IC50	25.2 µM
OC[C@@H]1[C@@H](O)[C@H](O)[C@@H](O)CN1CCCCCOCc1ccc(-c2ccc(F)cc2)cc1	GBA2	inhibitor, 4MU-β-D-glucopyranoside	HEK293T homogenates overexpressing GBA2	–	–	IC50	0.001 µM
Cc1cnc2nc1Nc1cccc(c1)COCc1cc(ccc1OCCN1CCOCC1)N2	JAK2	enzyme activity, inhibitor, FRET	–	–	–	IC50	0.034 µM
CC(C)(C)OC(=O)COc1ccccc1NC(=O)C(C(F)(F)F)C(F)(F)F	Chymotrypsinogen A	enzyme activity, inhibitor, fluorescence	–	–	–	IC50	15 µM

Compound	target or system	test	system	conditions	how to read	quantity	result
CCN(CC)CC(=O)Nc1cccc(-n2cc(-c3ccc4ccc(-c5cn(-c6cccc(NC(=O)CN(CC)CC)c6)nn5)cc4c3)nn2)c1	CSK (Homo sapiens, UniProt P41240)	enzyme activity, inhibitor	–	–	–	IC50	> 10 µM
Cc1cnc(Nc2ccc3c(c2)CCN(C(=O)/C=C/CC(C)C)C3)nc1-c1cnn(C(C)C)c1	JAK2	enzyme activity, inhibitor, ADP detection	–	–	–	IC50	0.0139 µM
CCCCCNC(=O)C1C(O)C(O)C(O)C(CO)N1CCCC (stereo not shown)	GBA2	inhibitor, 4MU-β-D-glucopyranoside	HEK293T homogenates overexpressing GBA2	–	–	IC50	0.02 µM
Cc1nc2ccc(Br)cc2c(=O)n1N	CTSB	enzyme activity, inhibitor	–	–	–	IC50	94.5 µM
Cc1c(COc2cc(OCc3cccc(C#N)c3)c(CN3CCCC[C@H]3C(=O)O)cc2Cl)cccc1-c1cccc(OCCCCCCC(=O)NO)c1	HDAC2 (Homo sapiens, UniProt Q92769)	enzyme activity, inhibitor	–	–	–	IC50	0.0305 µM
CCOc1ccccc1CNC(=O)C(C(F)(F)F)C(F)(F)F	Chymotrypsinogen A	enzyme activity, inhibitor, fluorescence	–	–	–	IC50	55 µM
Cc1c(Cc2cccc(OC(C)(C)C(=O)O)c2)c2ccc(C(=O)N[C@H](C)c3cccc(C(C)(C)C)c3)cc2n1C	PPARA ligand-binding domain	reporter gene, luciferase reporter	HEK293T, Gal4-PPARα LBD	–	–	IC50	20.1 µM
O=C1NC(=O)C(c2ccc(O)cc2)=C1Cl	Sensor histidine kinase AirS	autophosphorylation, inhibitor, BODIPY-FL-ATPγS in-gel fluorescence	–	lower bound of confidence interval	–	IC50	39 µM
Cc1c(Cc2cccc(OC(C)C(=O)O)c2)c2ccc(C(=O)NC(C)c3cccc(C(C)(C)C)c3)cc2n1C (mixture of isomers)	PPARA ligand-binding domain	reporter gene, luciferase reporter	HEK293T, Gal4-PPARα LBD	–	–	IC50	15.1 µM
COc1ccc(CN2C3(NC(c4ccc(OC)cc4)C24C(=O)Nc2ccccc24)C(=O)Nc2ccccc23)cc1 (stereo not shown)	PIK3CG	enzyme activity, inhibitor, ADP detection	–	–	–	IC50	0.0469 µM
COc1ccc2c(c1)N(C1=C(c3ccc(O)cc3)C(=O)NC1=O)CC2	Sensor histidine kinase AirS	autophosphorylation, inhibitor, BODIPY-FL-ATPγS in-gel fluorescence	–	lower bound of confidence interval	–	IC50	> 1250 µM
O=C(NCc1cccc(-n2cccn2)c1)C(C(F)(F)F)C(F)(F)F	Chymotrypsinogen A	enzyme activity, inhibitor, fluorescence	–	–	–	IC50	> 100 µM
COc1ccc(-c2ccc(COCCCCCN3C[C@H](O)[C@@H](O)[C@H](O)[C@H]3CO)cc2)cc1	GBA2	inhibitor, 4MU-β-D-glucopyranoside	HEK293T homogenates overexpressing GBA2	–	–	IC50	0.01 µM
O=C(NCc1cccc(Cl)c1)C(C(F)(F)F)C(F)(F)F	Chymotrypsinogen A	enzyme activity, inhibitor, fluorescence	–	–	–	IC50	4.7 µM
Cc1cc(NC2CCN(C)CC2)ccc1-c1cc2c(N3CCC[C@H](C(=O)NCc4ccc(OC(F)(F)F)cc4)C3)ncnc2[nH]1	PAK4 (Homo sapiens, UniProt O96013)	enzyme activity, inhibitor, mobility shift	–	–	–	IC50	7.56 µM
Cc1ccc(NC(=O)C(C(F)(F)F)C(F)(F)F)cn1	Chymotrypsinogen A	enzyme activity, inhibitor, fluorescence	–	–	–	IC50	8.7 µM
Cc1nn(-c2cccc(N)c2)c(=O)c2cnc(Nc3ccc(N4CCNCC4)cc3)nc12	PRKCI (Homo sapiens, UniProt P41743)	enzyme activity, inhibitor	–	–	–	IC50	> 10 µM
Cc1nc(N(C)c2ccc3c(c2)/C(=C/c2ccccc2)C(=O)N3C)c2ccccc2n1	PIK3CG	enzyme activity, inhibitor, ADP detection	–	–	–	IC50	0.246 µM
C[C@@H](O)[C@@H]1NC(=O)[C@H](CCCCN)NC(=O)[C@@H](Cc2c[nH]c3ccccc23)NC(=O)[C@H](Cc2ccc(NC(N)=O)cc2)NC(=O)[C@H](NC(=O)[C@H](Cc2ccccc2)NC(N)=O)CSSC[C@@H](C(=O)N[C@@H](Cc2ccc3ccccc3c2)C(N)=O)NC1=O	SSTR2 (Homo sapiens, UniProt P30874)	ligand displacement, radioligand	–	–	–	IC50	0.089 µM
CCCCCCCCOCCCCCN1C[C@H](O)[C@@H](O)[C@H](O)[C@@H]1CO	GBA2	inhibitor, 4MU-β-D-glucopyranoside	HEK293T homogenates overexpressing GBA2	–	–	IC50	0.015 µM
Cc1c(Cc2cccc(OC(C)C(=O)O)c2)c2ccc(C(=O)N[C@@H](C)c3cccc(C(C)C)c3)cc2n1C (stereo partly shown)	PPARA ligand-binding domain	reporter gene, luciferase reporter	HEK293T, Gal4-PPARα LBD	–	–	IC50	3.6 µM
C#CCNC(=O)c1ccc(S(=O)(=O)N[C@@H](CCCCNC(C)=S)C(=O)N[C@@H](CCCNC(=N)N)C(=O)N[C@@H](CC2CCCCC2)C(N)=O)cc1	SIRT2	enzyme activity, inhibitor, fluorescence	–	–	–	IC50	0.61 µM
OC[C@H]1[C@@H](O)[C@H](O)[C@@H](O)CN1CCCCCOCc1ccc2ccccc2c1	GBA2	inhibitor, 4MU-β-D-glucopyranoside	HEK293T homogenates overexpressing GBA2	–	–	IC50	0.001 µM
COC1CN([C@H]2CC[C@H]([C@@]3(C)Oc4c(Cl)cc(C(=O)NCc5c(SC)cc(C)[nH]c5=O)c(C)c4O3)CC2)C1	–	RNA-seq, item: SHANK3 mouse homolog	mouse, HT-1376 xenograft, whole blood	dose not given	baseline: vehicle	log2 fold change	0.592
CCCCCCCOCCCCCN1C[C@H](O)[C@@H](O)[C@H](O)[C@@H]1CO	GBA2	inhibitor, 4MU-β-D-glucopyranoside	HEK293T homogenates overexpressing GBA2	–	–	IC50	0.015 µM
Cn1cc(-c2ccc3[nH]c4c(c3c2)-c2nc(N)ncc2CC4)cn1	PIP4K2C (Homo sapiens, UniProt Q8TBX8)	target engagement in cells, BRET	–	–	–	IC50	0.17 µM
